Results gathered from unrelated publications.
Protocols differ between the studies behind these lines. “And” joins repeats or separate records; there may be more than shown. Numbers after ± are the reported error.

The TNF production of Nc1ncnc2c1ncn2[C@@H]1O[C@H](CO)[C@@H](O)[C@H]1O is reported as 2670 a.u. and 2260 a.u. and 2410 a.u. (activated human T cells; 31.6 µM; higher = more TNF).
CC(C)C[C@@H](C=O)NC(=O)[C@H](CC(C)C)NC(=O)[C@H](CC(C)C)NC(=O)OCc1ccccc1 has a remaining activity of 8.6% (HeLa expressing Ub(G76V)-GFP; Ub(G76V)-GFP degradation, cycloheximide chase; 2.5 µM; reference: DMSO).
Cc1cc(Nc2nn(-c3ccccc3)c(=O)c3ccccc23)n[nH]1 gave a viability of 113% (HBL-1; 0.5 µM, 120 h).
The EC50 of CCn1cc(-c2cc(Cn3ccnc3)cc3c2CCN([C@H](c2cc(OC)ccn2)C2CC2)C3=O)c(C(F)(F)F)n1 is reported as greater than 30 µM (LK-2; cell growth, inhibitor; 120 h).
CC[S+]([O-])c1nc(-c2cccc(OCc3ccccc3)c2)cc(C(F)(F)F)n1 (stereo not shown): “cells with nuclear RelA” 84.4% and 88.3% (HeLa Kyoto; RelA nuclear import, high content imaging; 0.5 µM, 3 h, together with: 1 µM PMA, 60 min).
C=CCn1c(=O)c2cnc(Nc3ccc(N4CCN(C)CC4)cc3)nc2n1-c1ccc2c(n1)[C@@](O)(CC)CC2: “mitotic γH2AX-negative G2/M cells” 15.5% (OVCAR-3; flow cytometry, refers to: pHH3+ γH2AX-; concentration not given).
Oc1cc(O)c2cc(O)c(-c3cc(O)c(O)c(O)c3)[o+]c2c1 gave a viability of 130% (HBL-1; 0.5 µM, 120 h).
Nc1ccccc1NC(=O)c1ccc(CNc2ccc(NC3=C(Cl)C(=O)c4cccnc4C3=O)cc2)cc1: “early apoptotic cells” 44.1% (MDA-MB-231; annexin V/PI staining, refers to: annexin V+/PI-; 8 µM, 72 h).
O=C1C(Cl)=C(N2C(=O)CCC2=O)C(=O)c2ccccc21 has an inhibition of 7% (HeLa expressing Ub(G76V)-GFP; Ub(G76V)-GFP degradation, cycloheximide chase; 12 µM).
Cl.Cl.N=C(NCCCCCCNC(=N)NC(=N)Nc1ccc(Cl)cc1)NC(=N)Nc1ccc(Cl)cc1 has an inhibition of 95.4% (BT-12; cell viability, MTT; 10 µM, 72 h).
The fractional effect of CC(=O)Nc1cccc(-n2c(=O)n(C3CC3)c(=O)c3c(Nc4ccc(I)cc4F)n(C)c(=O)c(C)c32)c1 is reported as 0.635 (NCI-H2087 (BRAF L597V); 50.00 nM; reference: DMSO).
With Cc1nc(-c2ccccc2)c(-c2ccncc2)o1 the inhibition was 4% (HeLa expressing Ub(G76V)-GFP; Ub(G76V)-GFP degradation, cycloheximide chase; 12 µM).
CC1=NN(c2ccc(C(=O)O)cc2)C(=O)/C1=C\c1ccc(-c2cc(C)c(C)cc2[N+](=O)[O-])o1 gave a viability of 112% (HBL-1; 0.1 µM, 120 h).
Cc1cc(Nc2ncc(Cl)c(Nc3ccccc3S(=O)(=O)C(C)C)n2)c(OC(C)C)cc1C1CCNCC1 — result for “log2 fold change”: -2.43 (CLB-GE; phosphoproteomics LC-MS/MS, refers to: SLC35E1 phosphorylation; 200 nM, 60 min; reference: untreated).
The inhibition of CC(C)C[C@H](NC(=O)CNC(=O)c1cc(Cl)ccc1Cl)B1OC(=O)C(CC(=O)O)(CC(=O)O)O1 is reported as 95.4% (BT-12; cell viability, MTT; 10 µM, 72 h).
The GI50 of O=C(/C=C/C=C/C=C/C1CCCCC1)NC1=C[C@@](O)(/C=C/C=C/C=C/C(=O)NC2=C(O)CCC2=O)[C@@H]2O[C@@H]2C1=O is reported as 15.6 µM (LXF-289; cell growth, CellTiter-Glo; 78 h).
For COc1cnc2cccc(N3CCc4c(cc(Cn5ccnc5C)cc4-c4cn(C)nc4C(F)(F)F)C3=O)c2c1, the EC50 was 30.9 µM (KYSE-70; cell growth, inhibitor; 120 h).
The inhibition of COc1ccc(Cl)cc1NC(=O)Nc1cc(C)nc2ccccc12 is reported as 53% (HeLa expressing Ub(G76V)-GFP; Ub(G76V)-GFP degradation, inhibitor, cycloheximide chase; 12 µM).
For O=C(/C=C/c1ccc(CN(CCO)CCc2c[nH]c3ccccc23)cc1)NO, the viability was 0.352% (HBL-1; 1 µM, 120 h).
For CCc1cnc(N2CCC(c3nc(COc4ccc(-n5cnnn5)cc4)cs3)CC2)nc1, “normalized enrichment score” read 1.26 (HEK-293T; RNA-seq GSEA, refers to: HALLMARK_P53_PATHWAY; concentration not given; direction not given).
CCC(=O)N1CCC(COCC(=O)N2CCN(c3nc(-c4cnc(N)nc4C(F)F)nc(N4CCOC[C@@H]4C)n3)CC2)CC1 has an IC50 of 0.287 µM (A2058; western blot, refers to: phospho-PKB/Akt Ser473; 2 h).
With CCCN1CCN(c2ccc3nc(-c4ccc5nc(-c6cc(OC)ccc6OC)[nH]c5c4)[nH]c3c2)CC1 the growth percent was 111% (Hs-578T; SRB; 10 µM, 48 h).
Cn1cc(/C=C/C(=O)c2cccc(F)c2)cc1/C=C/C(=O)NO has a viability of 123% (HBL-1; 0.1 µM, 120 h).
With Cn1c(Nc2nc3ccc(C(F)(F)F)cc3s2)nc2cc(C(=O)NCCOCCO)ccc21 the fold change was 2.34 (SH-SY5Y; RNA-seq, refers to: GREM1 mRNA; 5 µM, 5 h; reference: untreated cells).
O=C(O)CC[C@H](NC(=O)N[C@@H](CCCCNC(=O)CCCCCCC(=O)NCCCC[C@@H](NC(=O)[C@H](CCC(=O)O)NC(=O)[C@H](CCC(=O)O)NC(=O)CCC(=O)NCCCN1CC[S][Tc]2(=[O])[S]CC[N]2CC1)C(=O)O)C(=O)O)C(=O)O (stereo partly shown) [technetium-99m labelled] has a surface-bound activity of 2.5 ± 0.38 %AD/mg protein (LNCaP; 25 nM, 1 h, 4 °C).
With CCn1cc(-c2cc(Cn3ccoc3=N)cc3c2CCN([C@@H](C)c2cc(OC)ccn2)C3=O)c(C(F)(F)F)n1 the EC50 was 2.73 µM (HCC95; cell growth, inhibitor; 120 h).
With COc1ccc(C[C@H](N)C(=O)N[C@H]2[C@@H](O)[C@H](n3cnc4c(N(C)C)ncnc43)O[C@@H]2CO)cc1.Cl.Cl the inhibition was 94.7% (BT-12; cell viability, MTT; 10 µM, 72 h).
CCC/N=C1\S/C(=C\c2ccc(OC[C@H](O)CO)c(Cl)c2)C(=O)N1c1ccccc1C: “log2 fold change” 0.508 (human primary astrocytes; single-cell RNA-seq, refers to: NPPB mRNA; concentration not given, 24 h, together with: cytokines; reference: cytokines alone).
The apoptotic cells of Clc1ccc(N/N=C(\c2ccccc2)c2ccccn2)nc1 is reported as roughly 40% (CD326+ cells; annexin V flow cytometry; 0.25 µM, 24 h).
CCCCCCCCOC(=O)C(=O)CCC(=O)O gave a viability of 103% (HBL-1; 1 µM, 120 h).
COC(=O)[C@]12CCC(C)(C)C[C@H]1[C@H]1C(=O)C=C3[C@@]4(C)C=C(C#N)C(=O)C(C)(C)[C@@H]4CC[C@@]3(C)[C@]1(C)CC2 — result for “point of departure”: 0.038 µM (HepG2; high content imaging, refers to: DNA structure; 6 h, distribution mode 1).
For COc1cc2ncc(-c3ccccc3)nc2cc1OC, the inhibition was 29% (HeLa expressing Ub(G76V)-GFP; Ub(G76V)-GFP degradation, cycloheximide chase; 12 µM).
O=C(C[C@@H](C(F)F)n1ccc(F)n1)N1CCC(O)(Cn2cnc3c(cnn3-c3ccc(F)cc3)c2=O)CC1 — result for “cells in G1 phase”: 65.8% and 71.1% and 78.2% (CHP-212 parental (wild-type USP7); PI flow cytometry; 0.3 µM, 24 h).
For CC(C)(C)c1nc2c3cc[nH]c(=O)c3c3cc(F)ccc3c2[nH]1, the inhibition was 13% (HeLa expressing Ub(G76V)-GFP; Ub(G76V)-GFP degradation, inhibitor, cycloheximide chase; 12 µM).
C[C@]12O[C@H](C[C@]1(O)CO)n1c3ccccc3c3c4c(c5c6ccccc6n2c5c31)CNC4=O gave a viability of 30% (HBL-1; 0.1 µM, 120 h).
O=C1Nc2ccccc2/C1=C\c1c(Cl)[nH]c2ccccc12 has an inhibition of 44% (HeLa expressing Ub(G76V)-GFP; Ub(G76V)-GFP degradation, cycloheximide chase; 12 µM).
CC(C)N(C[C@H]1O[C@@H](n2cnc3c(N)ncnc32)[C@H](O)[C@@H]1O)[C@H]1C[C@@H](CCc2nc3cc(C(C)(C)C)ccc3[nH]2)C1 has a viability of 148% (HBL-1; 0.5 µM, 120 h).
Under “log2 fold change”, Cn1cc(-c2ccc(-c3cncc(Cl)c3N3CCC4(CCNC4=O)CC3)cc2)cn1 is recorded as 2.05 (COLO 205; gene expression, microarray, refers to: SERPINH1 mRNA; concentration not given, 6 h; reference: untreated cells).
CC[C@@H]1C(=O)N(C)c2cnc(Nc3ccc(C(=O)N[C@H]4CC[C@H](N5CCN(CC6CC6)CC5)CC4)cc3OC)nc2N1C(C)C has an inhibition of 89.2% (BT-12; cell viability, MTT; 10 µM, 72 h).
C[C@]12CCCN1CC1=NNC(=O)c3cc(F)cc4[nH]c2c1c34 has an EC50 of 4.9 µM (HGC-27 gastric cancer cells; cell viability; concentration not given, together with: with temozolomide).
CC[S+]([O-])c1nc(-c2ccccc2)cc(C(F)(F)F)n1 (stereo not shown) — result for “cells with nuclear RelA”: 78.1% and 65.1% (HeLa Kyoto; RelA nuclear import, high content imaging; 0.05 µM, 3 h, together with: 1 µM PMA, 60 min).
With COC(=O)Nc1nc2ccc(C(=O)c3ccccc3)cc2[nH]1 the inhibition was 86% (BT-12; cell viability, MTT; 10 µM, 72 h).
For C[C@H]1[C@@H](O)O[C@@H]2O[C@@]3(C)CC[C@H]4[C@H](C)CC[C@@H]1[C@@]24OO3, “early apoptotic cells” read 1.9% (THP-1; annexin V/PI flow cytometry, refers to: annexin V+/PI-; 0.8 µM, 24 h).
The protein level of CC/C(=N\NC(=O)C(C)Nc1ccccc1)c1ccc(O)c(C)c1O (stereo not shown) is reported as 1.59 ± 0.2 (SK-OV-3; Western blot, refers to: TAZ; 10 µM, 6 h, 2D culture, unit not given; reference: β-actin).
COc1cc2c(Oc3ccc(NC(=O)C4(C(=O)Nc5ccc(F)cc5)CC4)cc3F)ccnc2cc1OCCCN1CCOCC1 has an ATP level of 112% (hiPSC cardiomyocytes; CellTiter-Glo; concentration not given, 24 h; reference: vehicle).
For CCCOc1nc(-c2cccc(O)c2)cc(-c2cc3cc(OC)ccc3nc2N2CCOCC2)c1C#N, the EC50 was 0.107 ± 0.002 µM (WI-38; cell viability, MTT; 72 h).

Some of these lines once more:
For CC(C)(C)c1nc2c3cc[nH]c(=O)c3c3cc(F)ccc3c2[nH]1, the inhibition was 13% (HeLa expressing Ub(G76V)-GFP; Ub(G76V)-GFP degradation, inhibitor, cycloheximide chase; 12 µM).
C[C@]12O[C@H](C[C@]1(O)CO)n1c3ccccc3c3c4c(c5c6ccccc6n2c5c31)CNC4=O gave a viability of 30% (HBL-1; 0.1 µM, 120 h).
O=C1Nc2ccccc2/C1=C\c1c(Cl)[nH]c2ccccc12 has an inhibition of 44% (HeLa expressing Ub(G76V)-GFP; Ub(G76V)-GFP degradation, cycloheximide chase; 12 µM).
CC(C)N(C[C@H]1O[C@@H](n2cnc3c(N)ncnc32)[C@H](O)[C@@H]1O)[C@H]1C[C@@H](CCc2nc3cc(C(C)(C)C)ccc3[nH]2)C1 has a viability of 148% (HBL-1; 0.5 µM, 120 h).
Under “log2 fold change”, Cn1cc(-c2ccc(-c3cncc(Cl)c3N3CCC4(CCNC4=O)CC3)cc2)cn1 is recorded as 2.05 (COLO 205; gene expression, microarray, refers to: SERPINH1 mRNA; concentration not given, 6 h; reference: untreated cells).
CC[C@@H]1C(=O)N(C)c2cnc(Nc3ccc(C(=O)N[C@H]4CC[C@H](N5CCN(CC6CC6)CC5)CC4)cc3OC)nc2N1C(C)C has an inhibition of 89.2% (BT-12; cell viability, MTT; 10 µM, 72 h).
